# Published values gathered from unrelated publications.
# ± gives the spread as reported.
Molecule,cell line,test,test system,conditions,scale,quantity,result
CCNc1nc(Cl)nc(NC(C)C)n1,HEK293,neutral red uptake,,24 h,,LD50,4.23 µg/mL
NCCc1cc(O)c(O)cc1O,SH-SY5Y,"cell growth or viability, CCK-8",,"200 µM, 16 h",,viability,~30%
CC(C)N(N=O)C(C)C,HepaRG 2D,cell viability,,"concentration not given, 24 h",baseline: vehicle,ATP level,82.3%
Cn1cnc(S(=O)(=O)N2CCCCN3[C@H](CO)[C@@H](c4ccc(-c5ccc(F)cc5)cc4)[C@@H]3C2)c1,"HEp-2, uninfected",,,original sample,,CC50,59000 nM
Clc1cc2c(cc1Cl)Oc1cc(Cl)c(Cl)cc1O2,primary human hepatocytes,item: CYP1A1,human,"5 nM, 24 h",baseline: vehicle,mRNA fold induction,70.5 ± 1.8
C=CC[C@H](NC(=O)CCl)C(=O)N[C@@H](Cc1c[nH]c2ccccc12)C(=O)NCc1ccccc1,Vero,"cell morphology, microscopy",,5 (unit not given),,minimum cytotoxic concentration,100 µM
CC[C@H](C)[C@H](NC(=O)[C@H](CC(=O)O)NC(=O)[C@H](Cc1ccccc1)NC(=O)[C@H](CC(C)C)NC(=O)CN)C(=O)N[C@H](C(=O)N[C@@H](CCCCN)C(=O)N[C@@H](CCCCN)C(=O)N[C@H](C(=O)N[C@H](C(=O)NCC(=O)N[C@@H](C)C(=O)N[C@@H](CC(C)C)C(=O)NCC(N)=O)C(C)C)C(C)C)C(C)C,human erythrocytes,,,"1 h, 37 °C, hemolysis ≤5%",,minimal hemolytic concentration,16 µM
O=C(c1cc(Cc2n[nH]c(=O)c3ccccc23)ccc1F)N1CCN(C(=O)C2CC2)CC1,SK-BR-3 cells,cytotoxicity,,24 h,baseline: vehicle,lowest significantly active concentration,10 µM
C[C@H](NP(=O)(OCCOCn1cnc2c(=O)[nH]c(N)nc21)Oc1ccccc1)C(=O)OCc1ccccc1 (some centres unmarked),HEL,altered cell morphology,,,,minimal cytotoxic concentration,> 50 µM
CC[C@@]12SS[C@]3(C(=O)N1C)[C@@H](O)C1(C45c6ccccc6N[C@@H]4N4C(=O)[C@]6([C@@H](C)O)SS[C@]4(C(=O)N6C)[C@H]5O)c4ccccc4N[C@@H]1N3C2=O (some centres unmarked),NCI-H460,"cell growth or viability, SRB",,,,IC50,520 nM
CCCC[C@H](NC(=O)[C@H](CCN)NC(=O)[C@H](CCN)NC(=O)[C@H](CCCC)NC(=O)[C@H](Cc1c[nH]c2ccccc12)NC(=O)[C@H](CCN)NC(=O)[C@@H](N)CCCC)C(N)=O,human erythrocytes,,,"up to 100 µM, 4 h, 37 °C",baseline: Triton X-100,hemolysis,< 10%
O=NN1CCN(C2CCCC2)CC1,HepaRG 2D,cell viability,,"concentration not given, 24 h",baseline: vehicle,ATP level,70.8%
Clc1ccc(-c2nc3sccn3c2C=NOCc2ccc(Cl)c(Cl)c2)cc1,"Caco-2 cells, CAR-transfected",item: CYP2B6,,"1 µM, 24 h, unit not given",baseline: vector control,expression level,8.29 ± 3.33
CN(CCCC(=O)O)N=O,"HepaRG, 3D spheroids",flow cytometry micronucleus,,"highest tested concentration, 24 h, plus 6 days hEGF",baseline: vehicle,relative survival,76.7%
O=C(NCc1c(F)cccc1Cl)c1cn(Cc2ccc(F)cc2)cc(O)c1=O,HFF,trypan blue exclusion,,10 or 50 µM,,viability,> 90%
Nc1ccn([C@@H]2O[C@H](CO)[C@@H](O)C2(F)F)c(=O)n1,Vero,"cell morphology, microscopy",,5 (unit not given),,minimum cytotoxic concentration,0.008 µM
C[C@H](NP(=O)(OCCOCn1cnc2c(=O)[nH]c(N)nc21)Oc1cccc2ccccc12)C(=O)OC(C)(C)C (some centres unmarked),HEL,altered cell morphology,,,,minimal cytotoxic concentration,> 50 µM
N/C(=N\O)c1cc(O)c(O)c(O)c1,"ARPE-19, uninfected","cytotoxicity, CellTiter-Glo",,14 d,,TD50,222 ± 13 µM
CN[C@H](C(=O)N[C@H](C(=O)N(C)[C@H](c1noc(=O)[nH]1)C(C)C)C(C)C)C(C)(C)c1ccccc1,HeLa,"cell growth or viability, MTT",,,,IC50,> 10000 nM
CC(C)[C@H](NP(=O)(OCCOCn1cnc2c(=O)[nH]c(N)nc21)Oc1ccccc1)C(=O)OCc1ccccc1 (some centres unmarked),HEL,altered cell morphology,,,,minimal cytotoxic concentration,> 100 µM
CC[C@H](C)[C@H](NC(=O)[C@H](CC(=O)O)NC(=O)[C@H](Cc1ccccc1)NC(=O)[C@H](CC(C)C)NC(=O)CN)C(=O)N[C@H](C(=O)N[C@@H](CCCCN)C(=O)N[C@@H](CCCCN)C(=O)N[C@H](C(=O)N[C@H](C(=O)N[C@@H](CCCCN)C(=O)N[C@@H](CC(C)C)C(=O)N[C@@H](CC(C)C)C(=O)N[C@@H](CCCCN)C(N)=O)C(C)C)C(C)C)C(C)C,human erythrocytes,,,"1 h, 37 °C, hemolysis ≤5%",,minimal hemolytic concentration,32 µM
CC[C@@]12SS[C@]3(C(=O)N1C)[C@@H](O)[C@]1(C45c6ccccc6N[C@@H]4N4C(=O)[C@@]6(CC)SS[C@@]4(C(=O)N6C)[C@H]5O)c4ccccc4N[C@@H]1N3C2=O (some centres unmarked),SF-268,"cell growth or viability, SRB",,,,IC50,330 nM
Cc1cnc2cc(C)c3c(nc(N)n3C)c2n1,rat primary midbrain neurons,"dopaminergic neuron loss, item: TH+ over MAP2+ neurons",,24 h,,lowest toxic concentration,100 nM
CCN(CC)N=O,"HepaRG, 3D spheroids",,,"highest tested concentration, 24 h, plus 5 days, together with: hEGF 100 ng/mL",baseline: vehicle,γH2A.X fold increase,2 to 2.3 fold
pneumocandin I,human erythrocytes,,,"102.4 µg/mL, 1 h, 37 °C",baseline: Tween 20,hemolysis,> 50%
Cc1cc2ncccc2c2nc(N)n(C)c12,rat primary midbrain neurons,"dopaminergic neuron loss, item: TH+ over MAP2+ neurons",,24 h,,lowest toxic concentration,200 nM
CC(O)[C@@]12SS[C@]3(C(=O)N1C)[C@@H](O)[C@]1([C@@]45c6ccccc6N[C@@H]4N4C(=O)[C@]6(C)SS[C@]4(C(=O)N6C)[C@H]5O)c4ccccc4N[C@@H]1N3C2=O (some centres unmarked),NCI-H460,"cell growth or viability, SRB",,,,IC50,290 nM
CCN(N=O)C(C)C,"HepaRG, 3D spheroids",,,"concentration not given, 24 h, highest tested concentration, hEGF 6 days",baseline: vehicle,relative survival,89.9%
CC(=O)NC(C)(C)C(=O)N1CCC[C@H]1C(=O)NC(C)(C)C(=O)N[C@@H](C)C(=O)NC(C)(C)C(=O)N[C@@H](C)C(=O)N[C@@H](CCC(N)=O)C(=O)NC(C)(C)C(=O)N[C@H](C(=O)NC(C)(C)C(=O)NCC(=O)N[C@@H](CC(C)C)C(=O)NC(C)(C)C(=O)N1CCC[C@H]1C(=O)N[C@H](C(=O)NC(C)(C)C(=O)NC(C)(C)C(=O)N[C@@H](CCC(=O)O)C(=O)N[C@@H](CCC(N)=O)C(=O)N[C@H](CO)Cc1ccccc1)C(C)C)C(C)C,rat erythrocytes,,,"concentration not given, 30 min, pH 7.4, 37 °C, together with: Escherichia coli K-235 LPS, 1:5 w/w",,hemolysis,no inhibition
